Published values from different studies.
Each line is one published result; not all experiments were run side by side. pIC50: −log10 of the molar value. ≈ marks a conversion by molar mass, not a printed value.
UniProt Q14164, sequence (whole entry, looked up): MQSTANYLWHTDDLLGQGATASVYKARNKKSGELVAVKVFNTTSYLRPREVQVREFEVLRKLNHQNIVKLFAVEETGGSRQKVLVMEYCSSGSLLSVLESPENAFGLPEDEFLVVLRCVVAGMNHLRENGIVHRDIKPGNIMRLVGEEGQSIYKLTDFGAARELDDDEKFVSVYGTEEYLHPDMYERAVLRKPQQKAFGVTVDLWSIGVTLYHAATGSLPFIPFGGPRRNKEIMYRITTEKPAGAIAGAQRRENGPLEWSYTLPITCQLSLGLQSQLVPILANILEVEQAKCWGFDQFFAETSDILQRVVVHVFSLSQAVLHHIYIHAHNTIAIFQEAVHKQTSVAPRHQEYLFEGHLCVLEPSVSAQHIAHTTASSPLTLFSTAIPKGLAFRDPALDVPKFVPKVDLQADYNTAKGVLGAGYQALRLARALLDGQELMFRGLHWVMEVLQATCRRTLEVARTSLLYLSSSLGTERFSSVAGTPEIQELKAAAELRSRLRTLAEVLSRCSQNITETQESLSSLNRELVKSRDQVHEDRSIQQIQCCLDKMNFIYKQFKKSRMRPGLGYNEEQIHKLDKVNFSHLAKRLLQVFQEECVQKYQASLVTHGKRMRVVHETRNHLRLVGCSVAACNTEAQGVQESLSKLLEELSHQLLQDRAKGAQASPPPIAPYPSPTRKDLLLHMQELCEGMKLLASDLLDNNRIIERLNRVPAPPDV

| SMILES | target or system | test | system | conditions | quantity | value |
| --- | --- | --- | --- | --- | --- | --- |
| O=c1cc(CSc2ccc(N=Cc3ccccc3)cc2)occ1O | – | DPPH scavenging, absorbance | – | 30 min | pIC50 | 5.32 |
| O=C1NC(=O)C(C2C3=C(CCCC3=O)Oc3ccc([N+](=O)[O-])cc32)C(=O)N1 (centres unmarked) | 3T3-L1 | cell growth or viability, MTT | – | 72 h | IC20 | 153 µg/mL (≈ 413 µM) |
| COc1ccc(-c2cc(C(F)(F)F)c3c(N)c(C(=O)N4CCCCC4)sc3n2)cc1 | Mycobacterium tuberculosis | microbial growth | H37RV | – | pIC50 | < 4.00 |
| Nc1ncnc2c([C@@H]3N[C@H](CO)[C@@H](O)[C@H]3O)c[nH]c12 | unidentified influenza virus | viral replication, inhibitor | MDCK | 0.3 µM | inhibition | 0% |
| N.N.[Cl][Pt][Cl] | OCI-Ly7 | cell growth or viability, ATP luminescence | – | 72 h | pIC50 | 5.18 |
| COc1cnc(OC)n2nc(NS(=O)(=O)c3c(OCC(F)F)cccc3C(F)(F)F)nc12 | HaCaT | cell growth or viability, CCK-8 | – | 100 µM, 72 h | inhibition | 2.19% |
| CN1C(=O)C(C2C3=C(CC(C)(C)CC3=O)Oc3c(O)cccc32)C(=O)N(C)C1=O (centres unmarked) | 3T3-L1 | cell growth or viability, MTT | – | 72 h | IC50 | > 100 µg/mL |
| COc1ccc(-c2cc(C(F)(F)F)c3c(N)c(C(=O)NC(C)c4ccccc4)sc3n2)cn1 (centres unmarked) | Mycobacterium tuberculosis | microbial growth | H37RV | – | pIC50 | 6.03 |
| COC(=O)c1cc(-c2cccc(NC(=S)Nc3cccc(Cl)c3)c2)on1 | Mycolicibacterium fortuitum | microbial growth, broth dilution | ATCC6841 | 48 h | MIC | > 64 µg/mL |
| COc1ccc(-c2ccc3c(N)c(C(=O)N4CCOCC4)sc3n2)cc1 | Mycobacterium tuberculosis | microbial growth | H37RV | – | pIC50 | < 4.00 |
| COC(=O)c1cc(-c2cccc(NC(=S)Nc3ccc([N+](=O)[O-])cc3)c2)on1 | Klebsiella pneumoniae | microbial growth, broth dilution | BAA1705 | – | MIC | > 64 µg/mL |
| N.N.[Cl][Pt][Cl] | MCF7 | cell growth or viability, MTT | – | – | GI50 | 4.63 µM |
| O=c1cc(CSc2ccc(N=Cc3ccc(C(F)(F)F)cc3)cc2)occ1O | – | DPPH scavenging, absorbance | – | 30 min | pIC50 | 4.37 |
| COC(=O)c1cc(-c2cccc(NC(=O)Nc3ccc(Cl)c(C(F)(F)F)c3)c2)on1 | Pseudomonas aeruginosa | microbial growth, broth dilution | ATCC27853 | – | MIC | > 64 µg/mL |
| O=c1cc(CSc2ccc(N=Cc3cccc(Br)c3)cc2)occ1O | – | DPPH scavenging, absorbance | – | 30 min | pIC50 | 3.91 |
| COc1ccc(-c2cc(C(F)(F)F)c3c(N)c(C(=O)Nc4cccc(C)c4C)sc3n2)cc1 | Mycobacterium tuberculosis | microbial growth | H37RV | – | pIC50 | 6.01 |
| O=c1cc(CSc2ccc(N=Cc3cccc(O)c3)cc2)occ1O | – | DPPH scavenging, absorbance | – | 30 min | pIC50 | 5.16 |
| CCOC(=O)C1=C[C@@H](OC(CC)CC)[C@H](NC(C)=O)[C@@H](N)C1 | Human coronavirus 229E | cytopathic effect | A549 | 25 µM | inhibition | 67% |

| SMILES | target or system | test | system | conditions | quantity | value |
| --- | --- | --- | --- | --- | --- | --- |
| COc1ccc(-c2cc(C(F)(F)F)c3c(N)c(C(=O)NC4COC4)sc3n2)cc1 | Mycobacterium tuberculosis | microbial growth | H37RV | – | pIC50 | < 4.00 |
| COC(=O)c1cc(-c2cccc(NC(=O)Nc3ccc(F)c(F)c3)c2)on1 | Pseudomonas aeruginosa | microbial growth, broth dilution | ATCC27853 | – | MIC | > 64 µg/mL |
| N=C(N)c1ccc(OCc2cc(COc3ccc(C(=N)N)cc3)cc(-c3ccccc3)c2)cc1 | Escherichia coli | microbial growth, broth dilution | BW25113 | – | MIC | 100 µg/mL (≈ 222 µM) |
| Cc1cccc2[nH]cc(CNCC3(N4CCCC4)COC3)c12 | A 172 | cell growth or viability | – | 30 µM, 48 h | viability | 65.5% |
| [2H]c1c([2H])c([C@]2([2H])CCCN2C(=O)C(C)(C)Oc2ccc3cn[nH]c3c2)c([2H])c([2H])c1C([2H])([2H])[2H] | Inhibitor of nuclear factor kappa-B kinase subunit epsilon (IKBKE, Homo sapiens, UniProt Q14164) | binding, competition with immobilised ligand | – | 1 µM | remaining binding | 81% |
| COC(=O)c1cc(-c2cccc(NC(=O)Nc3cccc(Cl)c3Cl)c2)on1 | Mycolicibacterium fortuitum | microbial growth, broth dilution | ATCC6841 | 48 h | MIC | > 64 µg/mL |
| O=c1cc(CSc2ccc(N=Cc3cccc(F)c3)cc2)occ1O | – | DPPH scavenging, absorbance | – | 30 min | pIC50 | 4.06 |
| Cc1ccc(NC(=O)c2sc3nc(-c4ccccc4)cc(C(F)(F)F)c3c2N)cc1 | Mycobacterium tuberculosis | microbial growth | H37RV | – | pIC50 | < 4.00 |
| COC(=O)c1cc(-c2cccc(NC(=O)Nc3cccc(Cl)c3)c2)on1 | Pseudomonas aeruginosa | microbial growth, broth dilution | ATCC27853 | – | MIC | > 64 µg/mL |
| O=c1cc(CSc2ccc(N=Cc3ccc(Cl)cc3)cc2)occ1O | – | DPPH scavenging, absorbance | – | 30 min | pIC50 | 4.39 |
| COC(=O)c1cc(-c2cccc(NC(=S)Nc3ccc(Cl)cc3)c2)on1 | Pseudomonas aeruginosa | microbial growth, broth dilution | ATCC27853 | – | MIC | > 64 µg/mL |
| C[C@]12CC[C@H](n3ccnc3)CC1=CC[C@@H]1[C@@H]2CC[C@]2(C)C(n3cnc4ccccc43)=CC[C@@H]12 | LNCaP | cell growth or viability, MTT | – | – | GI50 | 0.2 µM |
| COc1ccc(-c2cc(C(F)(F)F)c3c(N)c(C(=O)NCC45CC6CC(CC(C6)C4)C5)sc3n2)cc1 | Mycobacterium tuberculosis | microbial growth | H37RV | – | pIC50 | 6.00 |
| CC(C)(C)c1ccc(C=Nc2ccc(SCc3cc(=O)c(O)co3)cc2)cc1 | – | DPPH scavenging, absorbance | – | 30 min | pIC50 | 4.51 |
| Cc1cccc2c(CNCC3(N4CCCC4)COC3)c[nH]c12 | A 172 | cell growth or viability | – | 30 µM, 48 h | viability | 52.4% |
| COc1ccc(-c2cc(C(F)(F)F)c3c(N)c(C(=O)NC45CC(C4)C5)sc3n2)cc1 | Mycobacterium tuberculosis | microbial growth | H37RV | – | pIC50 | < 4.30 |
| COC(=O)c1cc(-c2cccc(NC(=O)Nc3ccc(F)cc3)c2)on1 | Pseudomonas aeruginosa | microbial growth, broth dilution | ATCC27853 | – | MIC | > 64 µg/mL |

Excerpt of the above:
| SMILES | target or system | test | system | conditions | quantity | value |
| --- | --- | --- | --- | --- | --- | --- |
| COc1ccc(-c2cc(C(F)(F)F)c3c(N)c(C(=O)NCC45CC6CC(CC(C6)C4)C5)sc3n2)cc1 | Mycobacterium tuberculosis | microbial growth | H37RV | – | pIC50 | 6.00 |
| O=c1cc(CSc2ccc(N=Cc3ccc(Cl)cc3)cc2)occ1O | – | DPPH scavenging, absorbance | – | 30 min | pIC50 | 4.39 |
| Nc1ncnc2c([C@@H]3N[C@H](CO)[C@@H](O)[C@H]3O)c[nH]c12 | unidentified influenza virus | viral replication, inhibitor | MDCK | 0.3 µM | inhibition | 0% |
